# Measurements pooled from the literature.
# Each line is one published result; not all experiments were run side by side.
# MTNR1B: Melatonin receptor type 1B (MTNR1B, Homo sapiens, UniProt P49286)
# UniProt P49286, sequence (whole entry, looked up): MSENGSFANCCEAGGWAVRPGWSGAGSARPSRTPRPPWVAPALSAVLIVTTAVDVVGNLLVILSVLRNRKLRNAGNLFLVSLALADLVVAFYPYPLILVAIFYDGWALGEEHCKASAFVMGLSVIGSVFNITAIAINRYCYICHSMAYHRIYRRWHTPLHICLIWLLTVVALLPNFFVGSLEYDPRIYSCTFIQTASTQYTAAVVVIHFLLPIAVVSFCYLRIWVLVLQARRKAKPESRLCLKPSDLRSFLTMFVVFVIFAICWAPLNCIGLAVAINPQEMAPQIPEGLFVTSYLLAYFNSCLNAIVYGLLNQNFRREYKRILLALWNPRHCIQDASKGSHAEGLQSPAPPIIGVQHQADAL
# MTNR1A: Melatonin receptor type 1A (MTNR1A, Homo sapiens, UniProt P48039)
# UniProt P48039, sequence (whole entry, looked up): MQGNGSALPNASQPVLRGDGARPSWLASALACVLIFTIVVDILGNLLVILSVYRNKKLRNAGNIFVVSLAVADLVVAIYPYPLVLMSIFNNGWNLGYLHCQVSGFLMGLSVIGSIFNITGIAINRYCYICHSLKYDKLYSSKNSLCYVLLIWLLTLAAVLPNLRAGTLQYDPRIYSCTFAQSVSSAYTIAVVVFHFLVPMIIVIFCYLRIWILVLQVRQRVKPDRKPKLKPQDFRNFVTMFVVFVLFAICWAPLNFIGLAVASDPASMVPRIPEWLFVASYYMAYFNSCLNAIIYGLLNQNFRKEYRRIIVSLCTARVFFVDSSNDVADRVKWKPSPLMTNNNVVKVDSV
# UniProt P05164, sequence (whole entry, looked up): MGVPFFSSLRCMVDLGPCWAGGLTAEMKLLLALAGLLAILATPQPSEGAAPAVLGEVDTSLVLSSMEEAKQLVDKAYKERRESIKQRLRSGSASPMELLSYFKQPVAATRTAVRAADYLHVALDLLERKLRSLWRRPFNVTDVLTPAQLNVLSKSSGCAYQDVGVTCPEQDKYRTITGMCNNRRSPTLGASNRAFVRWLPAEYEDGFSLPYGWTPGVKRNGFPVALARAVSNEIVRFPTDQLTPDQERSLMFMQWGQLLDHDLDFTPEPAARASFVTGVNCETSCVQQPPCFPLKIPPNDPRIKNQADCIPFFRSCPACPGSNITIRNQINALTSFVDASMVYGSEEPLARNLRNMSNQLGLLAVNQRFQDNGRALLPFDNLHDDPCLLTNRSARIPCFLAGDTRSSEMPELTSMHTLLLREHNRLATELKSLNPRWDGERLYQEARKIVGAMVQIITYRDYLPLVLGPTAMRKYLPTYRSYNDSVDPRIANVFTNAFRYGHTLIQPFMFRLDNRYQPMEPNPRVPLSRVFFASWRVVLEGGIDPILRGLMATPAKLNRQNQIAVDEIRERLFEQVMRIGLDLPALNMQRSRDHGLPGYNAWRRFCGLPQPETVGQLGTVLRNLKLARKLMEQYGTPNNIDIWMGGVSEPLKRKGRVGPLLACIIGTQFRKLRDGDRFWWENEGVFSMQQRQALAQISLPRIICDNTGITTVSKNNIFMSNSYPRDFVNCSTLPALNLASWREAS
# UniProt P09769, sequence (whole entry, looked up): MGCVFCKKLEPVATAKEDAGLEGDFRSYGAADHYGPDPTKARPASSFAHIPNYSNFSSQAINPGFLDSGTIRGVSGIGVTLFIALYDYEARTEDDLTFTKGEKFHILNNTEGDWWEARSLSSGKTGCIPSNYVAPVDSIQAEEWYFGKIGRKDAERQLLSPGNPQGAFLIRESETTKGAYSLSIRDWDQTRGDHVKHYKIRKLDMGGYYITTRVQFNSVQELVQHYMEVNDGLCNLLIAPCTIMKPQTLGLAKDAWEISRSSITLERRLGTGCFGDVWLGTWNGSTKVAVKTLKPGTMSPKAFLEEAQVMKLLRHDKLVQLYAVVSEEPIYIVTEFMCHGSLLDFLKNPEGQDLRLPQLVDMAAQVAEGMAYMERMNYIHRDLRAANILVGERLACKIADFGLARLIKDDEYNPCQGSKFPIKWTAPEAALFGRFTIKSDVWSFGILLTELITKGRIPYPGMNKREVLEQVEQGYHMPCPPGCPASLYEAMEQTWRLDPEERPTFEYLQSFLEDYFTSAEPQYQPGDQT
# UniProt P78362, sequence (whole entry, looked up): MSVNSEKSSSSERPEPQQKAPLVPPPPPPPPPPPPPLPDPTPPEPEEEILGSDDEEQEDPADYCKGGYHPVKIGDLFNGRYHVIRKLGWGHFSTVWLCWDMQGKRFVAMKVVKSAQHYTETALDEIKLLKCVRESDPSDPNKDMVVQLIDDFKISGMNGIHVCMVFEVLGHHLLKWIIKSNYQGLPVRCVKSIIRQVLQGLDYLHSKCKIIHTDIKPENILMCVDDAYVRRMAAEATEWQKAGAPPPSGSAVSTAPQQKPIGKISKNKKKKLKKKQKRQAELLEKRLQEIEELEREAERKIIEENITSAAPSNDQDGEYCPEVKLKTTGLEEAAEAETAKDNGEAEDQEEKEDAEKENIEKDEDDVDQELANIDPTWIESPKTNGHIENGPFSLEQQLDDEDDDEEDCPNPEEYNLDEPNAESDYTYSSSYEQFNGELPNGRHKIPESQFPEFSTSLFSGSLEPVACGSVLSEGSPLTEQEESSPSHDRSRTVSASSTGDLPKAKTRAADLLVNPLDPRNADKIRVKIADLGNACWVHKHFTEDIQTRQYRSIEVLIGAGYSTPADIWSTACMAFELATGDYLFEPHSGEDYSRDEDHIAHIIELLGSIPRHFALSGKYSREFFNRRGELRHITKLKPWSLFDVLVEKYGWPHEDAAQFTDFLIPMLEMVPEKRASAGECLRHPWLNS
# UniProt Q62868, sequence (whole entry, looked up): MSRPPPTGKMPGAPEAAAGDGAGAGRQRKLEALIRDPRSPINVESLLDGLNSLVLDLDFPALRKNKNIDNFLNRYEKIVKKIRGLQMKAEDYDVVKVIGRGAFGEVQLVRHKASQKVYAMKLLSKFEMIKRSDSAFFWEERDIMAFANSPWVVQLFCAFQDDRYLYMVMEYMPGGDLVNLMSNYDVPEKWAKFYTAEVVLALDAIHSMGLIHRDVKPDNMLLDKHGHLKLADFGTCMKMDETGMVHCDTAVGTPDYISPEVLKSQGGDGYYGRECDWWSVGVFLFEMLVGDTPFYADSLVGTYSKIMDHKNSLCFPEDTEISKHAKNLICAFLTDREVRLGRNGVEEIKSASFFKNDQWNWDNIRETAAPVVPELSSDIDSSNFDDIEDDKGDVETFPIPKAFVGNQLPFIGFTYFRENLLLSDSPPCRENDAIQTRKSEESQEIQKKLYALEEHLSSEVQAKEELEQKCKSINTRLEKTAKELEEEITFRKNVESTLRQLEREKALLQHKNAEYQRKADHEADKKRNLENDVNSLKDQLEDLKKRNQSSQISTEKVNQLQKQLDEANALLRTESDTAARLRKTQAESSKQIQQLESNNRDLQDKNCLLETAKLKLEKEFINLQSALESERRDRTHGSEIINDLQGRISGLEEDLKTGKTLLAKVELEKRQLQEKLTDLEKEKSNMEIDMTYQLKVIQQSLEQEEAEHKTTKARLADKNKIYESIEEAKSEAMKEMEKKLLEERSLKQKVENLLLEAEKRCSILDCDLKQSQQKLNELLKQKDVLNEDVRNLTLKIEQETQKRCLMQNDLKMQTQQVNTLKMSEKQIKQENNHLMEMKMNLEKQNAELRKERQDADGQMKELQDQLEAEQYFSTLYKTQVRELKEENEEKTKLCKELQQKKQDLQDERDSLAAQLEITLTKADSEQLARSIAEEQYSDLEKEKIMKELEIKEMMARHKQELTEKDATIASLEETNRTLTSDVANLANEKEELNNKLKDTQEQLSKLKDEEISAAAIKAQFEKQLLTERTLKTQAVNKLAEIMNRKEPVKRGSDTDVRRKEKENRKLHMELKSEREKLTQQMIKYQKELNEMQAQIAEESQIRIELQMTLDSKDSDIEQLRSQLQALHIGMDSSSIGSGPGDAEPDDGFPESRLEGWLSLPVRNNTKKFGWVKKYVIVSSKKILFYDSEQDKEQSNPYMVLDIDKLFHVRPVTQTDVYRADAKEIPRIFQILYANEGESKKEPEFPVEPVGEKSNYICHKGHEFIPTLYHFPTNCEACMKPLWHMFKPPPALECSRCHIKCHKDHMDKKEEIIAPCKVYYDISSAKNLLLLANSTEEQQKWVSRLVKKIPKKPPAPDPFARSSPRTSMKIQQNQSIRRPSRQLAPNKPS
# UniProt P29376, sequence (whole entry, looked up): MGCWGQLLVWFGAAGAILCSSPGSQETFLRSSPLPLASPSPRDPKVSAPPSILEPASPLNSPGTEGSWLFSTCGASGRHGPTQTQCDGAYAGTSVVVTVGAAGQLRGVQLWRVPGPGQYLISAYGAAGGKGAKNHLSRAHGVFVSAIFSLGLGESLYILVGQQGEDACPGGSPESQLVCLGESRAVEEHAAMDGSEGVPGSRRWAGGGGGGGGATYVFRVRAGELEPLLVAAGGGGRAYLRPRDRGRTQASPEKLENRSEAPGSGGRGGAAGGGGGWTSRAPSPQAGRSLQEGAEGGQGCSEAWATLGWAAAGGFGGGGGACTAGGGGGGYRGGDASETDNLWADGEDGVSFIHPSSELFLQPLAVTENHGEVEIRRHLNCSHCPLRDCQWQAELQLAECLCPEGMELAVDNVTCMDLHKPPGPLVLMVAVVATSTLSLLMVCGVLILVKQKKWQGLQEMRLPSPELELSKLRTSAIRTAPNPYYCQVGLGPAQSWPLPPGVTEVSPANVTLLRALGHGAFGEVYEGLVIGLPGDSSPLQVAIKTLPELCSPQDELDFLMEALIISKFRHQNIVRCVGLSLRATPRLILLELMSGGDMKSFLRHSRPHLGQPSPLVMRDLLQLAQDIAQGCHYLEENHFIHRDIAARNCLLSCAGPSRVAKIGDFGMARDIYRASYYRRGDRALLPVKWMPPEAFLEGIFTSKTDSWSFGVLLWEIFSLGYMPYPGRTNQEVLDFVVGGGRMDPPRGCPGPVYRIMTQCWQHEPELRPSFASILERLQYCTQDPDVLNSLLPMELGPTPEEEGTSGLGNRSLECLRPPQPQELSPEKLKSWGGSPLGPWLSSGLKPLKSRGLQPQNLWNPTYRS
Compound,tested on,test,test system,conditions,quantity,result
CC(=O)/C=C/C=C(C)/C=C/C1=C(C)CC(O)CC1(C)C (stereo in doubt),"D14 (Oryza sativa, UniProt Q10QA5)","thermal stability, DSF",,250 µM,ΔTm,6.4 °C
CNc1ncc2c(/C=C/C(=O)N3CCC(OC)CC3)nn(Cc3cccc(C(F)(F)F)c3)c2n1,"GRK2 (Homo sapiens, UniProt P25098)","enzyme activity, inhibitor, radiometric",,1 µM,remaining activity,98%
COc1cc2c(CCNC(C)=O)c(I)[nH]c2cc1[N+](=O)[O-],MTNR1B,"cAMP, agonist, TR-FRET",CHO-K1,20 min,Emax,92%
Cc1cc([C@@H](C)Nc2ccccc2C(=O)O)c2nc(N3CCC(F)(F)CC3)c(C#N)c(=O)n2c1,"FLT3 (Homo sapiens, UniProt P36888)","binding, competition with immobilised ligand",,1 µM,remaining binding,93%
C[C@H]1CCN(c2nccc(-c3cnn4ncccc34)n2)C1,"CDK19 (Homo sapiens, UniProt Q9BWU1)",binding,,1 µM,remaining binding,70%
COc1cc(-c2cncc3c2CN(C)Cc2cc(N4CCNCC4)ccc2-3)cc(OC)c1OC,"FGR (Homo sapiens, UniProt P09769)","enzyme activity, inhibitor",,1 µM,remaining activity,93%
O=C(NCc1cc(O)c(O)c(Br)c1)c1ccco1,"Replicase polyprotein 1ab, main protease (rep, Porcine epidemic diarrhea virus, UniProt P0C6Y4)","enzyme activity, inhibitor, FRET",,10 µM,inhibition,73.1%
NC/C(=C\F)COc1cccc(Cn2c(=S)[nH]c(=O)c3[nH]cnc32)c1,"Myeloperoxidase (MPO, Homo sapiens, UniProt P05164)","enzyme activity, inhibitor",,0.625 µM,remaining activity,13.4%
CCC(=O)NC1Cc2ccccc2C(c2ccccc2)C1 (stereo not drawn),MTNR1A,"cAMP, agonist, TR-FRET",CHO-K1,20 min,Emax,48%
FC(F)(F)Oc1cccc(-c2cnc3ccc(-c4ccncc4)nn23)c1,"Rock2 (Rattus norvegicus, UniProt Q62868)","enzyme activity, inhibitor, radiometric",,5 µM,activity vs control,91%
CCCCC(=O)Nc1ccc(-c2ccc3ncn(CCC)c(=O)c3c2)cn1,"SRPK2 (Homo sapiens, UniProt P78362)","binding, competition with immobilised ligand",,0.5 µM,remaining binding,100%
COc1ccc2[nH]cc(CCNC(C)=O)c2c1I,MTNR1B,"GTPγS binding, agonist, radiometric",,cell membranes,Emax,66%
C=CC(=O)N1CCC(COCC(=O)N2CCN(c3nc(-c4cnc(N)nc4C(F)F)nc(N4CCOC[C@@H]4C)n3)CC2)CC1,"MAP3K10 (Homo sapiens, UniProt Q02779)","binding, competition with immobilised ligand",,1 µM,remaining binding,100%
CC[C@H]1OC(=O)[C@H](C)[C@@H](O[C@H]2C[C@@](C)(OC)[C@@H](O)[C@H](C)O2)[C@H](C)[C@@H](O[C@@H]2O[C@H](C)C[C@H](N(C)C)[C@H]2O)[C@](C)(OC)C[C@@H](C)C(=O)[C@H](C)[C@@H](O)[C@]1(C)O,Helicobacter pylori,"microbial growth, broth dilution",,15.63 µg/mL,inhibition,100%
CC[C@H](C)[C@H](NC(=O)[C@H](CCC(N)=O)NC(=O)[C@@H](NC(=O)[C@H](CCSC)NC(=O)[C@H](CCCCN)NC(=O)[C@H](CO)NC(=O)[C@@H](NC(=O)[C@H](CCSC)NC(=O)[C@H](CC(C)C)NC(=O)[C@H](CC(N)=O)NC(=O)[C@@H](NC(=O)[C@@H](NC(=O)[C@H](CO)NC(=O)[C@H](CC(C)C)NC(=O)[C@H](C)NC(=O)[C@H](CCCNC(=N)N)NC(=O)[C@H](CCC(=O)O)NC(=O)[C@H](Cc1ccc(O)cc1)NC(=O)[C@H](Cc1ccccc1)NC(=O)[C@H](C)NC(=O)[C@H](CC(N)=O)NC(=O)[C@@H](N)CCCCN)[C@@H](C)CC)[C@@H](C)CC)[C@@H](C)O)C(C)C)C(=O)N[C@@H](CC(N)=O)C(=O)N[C@H](C(=O)O)C(C)C,"Cyclin-dependent kinase 5, with p25 (CDK5, Homo sapiens, UniProt Q00535)","enzyme activity, inhibitor, radiometric",,10 µM,inhibition,8%
Cc1cccc(N(O)N=Nc2ccc(S(=O)(=O)Nc3cc(C)on3)cc2)c1,,"DPPH scavenging, absorbance",,60 µg/mL,inhibition,30.2%
CC(=NNC(=O)c1ccccc1)c1ccc(Nc2nnc(-c3ccc(Cl)cc3)c3ccccc23)cc1,HepG2,"cell growth or viability, MTT",,5 µM,cell death,97.3%
Nc1ncnc2occ(-c3ccc(NC(=O)Nc4cc(C(F)(F)F)ccc4F)cc3)c12,"PIK3CA (Homo sapiens, UniProt P42336, E542K)","cell-free assay, inhibitor",,20 µM,remaining signal,46%
C1=C/COCc2cc(ccc2OCCN2CCCC2)Nc2nccc(n2)-c2cccc(c2)COC/1,"LTK (Homo sapiens, UniProt P29376)",binding,,0.1 µM,remaining binding,100%
COc1ccc2cccc(CCNC(C)=O)c2c1,MTNR1A,"cAMP, agonist, TR-FRET",CHO-K1,20 min,Emax,91%
Cc1noc(NS(=O)(=O)c2ccc(N=NN(C)O)cc2)c1C,,"DPPH scavenging, absorbance",,120 µg/mL,inhibition,17.5%
